Published values of several laboratories.
Numbered parts are unrelated; each lists some results of a single study. Values joined by “and” are separate records of one study, mostly repeats; a detail may differ. Changes are numbered by the printed parent chain.
Sequence of UniProt P42336 (whole entry, unmodified, looked up): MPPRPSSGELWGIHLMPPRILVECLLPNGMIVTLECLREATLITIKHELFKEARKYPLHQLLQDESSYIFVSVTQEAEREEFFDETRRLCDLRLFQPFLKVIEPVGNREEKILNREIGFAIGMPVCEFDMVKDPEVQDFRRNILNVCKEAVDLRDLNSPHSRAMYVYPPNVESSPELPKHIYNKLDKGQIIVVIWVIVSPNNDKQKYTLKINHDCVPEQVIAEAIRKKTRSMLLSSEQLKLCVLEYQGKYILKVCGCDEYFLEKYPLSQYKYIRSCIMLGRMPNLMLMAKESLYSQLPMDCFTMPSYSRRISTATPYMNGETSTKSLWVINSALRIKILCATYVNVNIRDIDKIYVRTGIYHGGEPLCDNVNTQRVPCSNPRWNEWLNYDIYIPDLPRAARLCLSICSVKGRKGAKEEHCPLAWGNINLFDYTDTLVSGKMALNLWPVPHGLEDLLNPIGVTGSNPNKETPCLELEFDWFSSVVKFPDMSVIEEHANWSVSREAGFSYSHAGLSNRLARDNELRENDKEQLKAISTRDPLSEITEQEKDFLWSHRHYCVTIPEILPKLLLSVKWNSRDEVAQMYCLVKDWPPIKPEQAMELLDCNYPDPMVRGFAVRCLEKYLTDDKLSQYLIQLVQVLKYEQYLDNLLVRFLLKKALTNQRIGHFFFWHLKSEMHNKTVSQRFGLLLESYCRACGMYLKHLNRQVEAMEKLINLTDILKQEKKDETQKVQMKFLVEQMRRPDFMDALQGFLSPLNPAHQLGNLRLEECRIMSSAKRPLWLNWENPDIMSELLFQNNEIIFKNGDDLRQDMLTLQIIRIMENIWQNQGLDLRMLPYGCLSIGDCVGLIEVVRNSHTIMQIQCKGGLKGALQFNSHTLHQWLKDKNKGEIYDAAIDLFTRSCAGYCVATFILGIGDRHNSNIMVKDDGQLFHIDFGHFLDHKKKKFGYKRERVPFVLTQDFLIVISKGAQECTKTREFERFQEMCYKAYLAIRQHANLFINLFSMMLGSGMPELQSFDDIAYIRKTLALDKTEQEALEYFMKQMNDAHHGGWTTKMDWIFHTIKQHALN
Sequence of UniProt Q9UBF8 (whole entry, looked up): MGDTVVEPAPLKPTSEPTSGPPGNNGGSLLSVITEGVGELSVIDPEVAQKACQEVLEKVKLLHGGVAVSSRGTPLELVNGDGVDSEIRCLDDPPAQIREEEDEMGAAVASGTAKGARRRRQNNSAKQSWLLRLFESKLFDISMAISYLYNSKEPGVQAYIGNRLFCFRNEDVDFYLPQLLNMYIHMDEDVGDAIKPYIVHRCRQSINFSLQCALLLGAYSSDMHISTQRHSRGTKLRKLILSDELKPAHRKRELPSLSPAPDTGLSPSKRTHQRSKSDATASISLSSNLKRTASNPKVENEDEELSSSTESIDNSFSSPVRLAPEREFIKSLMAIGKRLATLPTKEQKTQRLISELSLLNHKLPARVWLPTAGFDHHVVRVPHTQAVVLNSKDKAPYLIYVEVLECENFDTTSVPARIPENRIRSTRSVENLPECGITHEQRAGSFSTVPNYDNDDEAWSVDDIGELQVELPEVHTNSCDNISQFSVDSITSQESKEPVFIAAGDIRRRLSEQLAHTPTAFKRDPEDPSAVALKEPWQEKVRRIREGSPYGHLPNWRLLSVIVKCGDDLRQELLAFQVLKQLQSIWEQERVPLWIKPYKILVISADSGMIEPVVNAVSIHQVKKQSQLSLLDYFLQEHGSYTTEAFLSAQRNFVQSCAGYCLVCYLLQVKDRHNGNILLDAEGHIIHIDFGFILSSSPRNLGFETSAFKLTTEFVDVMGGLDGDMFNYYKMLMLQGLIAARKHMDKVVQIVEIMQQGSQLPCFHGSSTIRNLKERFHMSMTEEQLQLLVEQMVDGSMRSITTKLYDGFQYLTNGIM
Sequence of UniProt Q9UEE5 (whole entry, looked up): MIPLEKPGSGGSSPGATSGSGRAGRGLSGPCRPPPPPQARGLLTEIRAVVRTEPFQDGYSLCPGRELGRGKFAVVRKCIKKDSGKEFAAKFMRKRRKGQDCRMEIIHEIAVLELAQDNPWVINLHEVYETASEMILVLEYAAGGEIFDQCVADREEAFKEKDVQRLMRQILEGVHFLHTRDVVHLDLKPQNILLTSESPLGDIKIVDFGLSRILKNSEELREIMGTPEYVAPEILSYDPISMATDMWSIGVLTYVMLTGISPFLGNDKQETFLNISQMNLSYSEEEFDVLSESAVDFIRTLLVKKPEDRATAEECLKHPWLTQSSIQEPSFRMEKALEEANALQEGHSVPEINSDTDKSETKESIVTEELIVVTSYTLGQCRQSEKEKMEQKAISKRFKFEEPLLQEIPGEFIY
Sequence of UniProt Q15418 (whole entry, looked up): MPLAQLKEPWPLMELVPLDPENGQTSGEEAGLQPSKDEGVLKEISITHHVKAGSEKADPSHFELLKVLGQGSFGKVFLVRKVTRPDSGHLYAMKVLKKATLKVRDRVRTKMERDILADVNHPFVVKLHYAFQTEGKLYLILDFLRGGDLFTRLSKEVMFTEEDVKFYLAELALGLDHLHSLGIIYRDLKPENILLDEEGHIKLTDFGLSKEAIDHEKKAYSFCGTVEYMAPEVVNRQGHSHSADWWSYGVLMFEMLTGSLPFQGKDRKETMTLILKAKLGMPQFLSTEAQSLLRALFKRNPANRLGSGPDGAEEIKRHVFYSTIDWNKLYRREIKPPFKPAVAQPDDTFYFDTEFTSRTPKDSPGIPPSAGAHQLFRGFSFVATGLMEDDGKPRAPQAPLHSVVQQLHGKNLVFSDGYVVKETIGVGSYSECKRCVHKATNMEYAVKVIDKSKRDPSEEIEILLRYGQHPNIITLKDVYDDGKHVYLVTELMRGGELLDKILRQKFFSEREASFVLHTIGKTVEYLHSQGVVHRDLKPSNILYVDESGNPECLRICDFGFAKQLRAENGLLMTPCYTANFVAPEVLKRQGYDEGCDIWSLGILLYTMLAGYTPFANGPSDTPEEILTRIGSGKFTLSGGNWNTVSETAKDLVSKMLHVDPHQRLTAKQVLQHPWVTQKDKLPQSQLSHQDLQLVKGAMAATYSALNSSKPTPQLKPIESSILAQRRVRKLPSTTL
Sequence of UniProt O60285 (whole entry, looked up): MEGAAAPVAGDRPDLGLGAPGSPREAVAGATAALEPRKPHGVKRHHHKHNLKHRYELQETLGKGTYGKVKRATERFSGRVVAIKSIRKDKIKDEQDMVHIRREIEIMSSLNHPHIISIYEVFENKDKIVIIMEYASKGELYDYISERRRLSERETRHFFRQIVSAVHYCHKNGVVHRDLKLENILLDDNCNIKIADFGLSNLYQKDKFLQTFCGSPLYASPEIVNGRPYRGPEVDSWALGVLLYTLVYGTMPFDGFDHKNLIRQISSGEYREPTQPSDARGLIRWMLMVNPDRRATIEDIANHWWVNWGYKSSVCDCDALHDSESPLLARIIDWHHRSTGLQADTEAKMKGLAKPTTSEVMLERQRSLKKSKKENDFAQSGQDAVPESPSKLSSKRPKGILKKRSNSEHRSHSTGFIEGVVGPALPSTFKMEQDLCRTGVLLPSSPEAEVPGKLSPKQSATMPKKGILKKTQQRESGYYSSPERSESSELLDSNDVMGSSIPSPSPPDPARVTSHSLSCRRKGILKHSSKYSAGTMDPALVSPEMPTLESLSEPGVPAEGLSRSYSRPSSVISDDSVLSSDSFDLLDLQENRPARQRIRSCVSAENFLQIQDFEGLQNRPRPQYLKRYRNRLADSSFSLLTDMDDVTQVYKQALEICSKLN
Sequence of UniProt P42685 (whole entry, looked up): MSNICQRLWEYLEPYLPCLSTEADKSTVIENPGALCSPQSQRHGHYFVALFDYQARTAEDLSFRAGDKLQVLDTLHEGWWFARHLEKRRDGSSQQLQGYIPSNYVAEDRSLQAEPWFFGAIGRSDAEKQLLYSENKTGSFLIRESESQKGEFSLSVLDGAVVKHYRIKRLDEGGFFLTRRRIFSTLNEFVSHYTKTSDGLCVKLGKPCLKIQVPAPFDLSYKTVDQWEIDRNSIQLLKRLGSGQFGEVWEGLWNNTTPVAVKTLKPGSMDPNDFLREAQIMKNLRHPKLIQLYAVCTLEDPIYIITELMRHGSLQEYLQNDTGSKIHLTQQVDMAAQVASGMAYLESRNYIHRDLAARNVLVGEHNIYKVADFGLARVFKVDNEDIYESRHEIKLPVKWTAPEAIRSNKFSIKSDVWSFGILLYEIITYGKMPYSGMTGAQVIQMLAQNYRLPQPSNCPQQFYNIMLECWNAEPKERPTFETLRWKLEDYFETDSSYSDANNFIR
Sequence of UniProt P29376 (whole entry, looked up): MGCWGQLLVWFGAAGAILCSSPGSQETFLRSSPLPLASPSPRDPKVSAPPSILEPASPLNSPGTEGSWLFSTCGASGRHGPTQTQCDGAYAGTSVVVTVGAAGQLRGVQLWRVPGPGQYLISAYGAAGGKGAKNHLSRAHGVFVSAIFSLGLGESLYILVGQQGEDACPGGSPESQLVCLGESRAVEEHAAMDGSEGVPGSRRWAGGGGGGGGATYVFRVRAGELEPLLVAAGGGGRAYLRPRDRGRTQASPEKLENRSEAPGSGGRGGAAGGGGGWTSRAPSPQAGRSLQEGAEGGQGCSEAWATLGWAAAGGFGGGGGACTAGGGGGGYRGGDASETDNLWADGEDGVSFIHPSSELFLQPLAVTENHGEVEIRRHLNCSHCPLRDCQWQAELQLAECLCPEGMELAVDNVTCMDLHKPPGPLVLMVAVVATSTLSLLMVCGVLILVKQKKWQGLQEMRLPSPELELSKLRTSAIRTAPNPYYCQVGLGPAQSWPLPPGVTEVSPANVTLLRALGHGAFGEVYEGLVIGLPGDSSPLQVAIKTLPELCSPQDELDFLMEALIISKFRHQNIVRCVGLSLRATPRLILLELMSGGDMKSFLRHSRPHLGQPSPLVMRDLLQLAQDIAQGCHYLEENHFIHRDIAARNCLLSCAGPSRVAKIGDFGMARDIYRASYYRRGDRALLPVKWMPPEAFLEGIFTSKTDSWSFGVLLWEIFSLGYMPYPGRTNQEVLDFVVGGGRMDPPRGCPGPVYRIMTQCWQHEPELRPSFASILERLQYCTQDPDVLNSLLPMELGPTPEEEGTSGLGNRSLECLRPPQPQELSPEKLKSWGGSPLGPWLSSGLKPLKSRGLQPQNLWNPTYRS

Study 1 — method: competition with immobilised ligand; concentration: 0.1 µM
Compound: CNC(=O)c1ccc(Nc2ncc(C(F)(F)F)c(NCc3nccnc3N(C)S(C)(=O)=O)n2)cc1
| target | assay | remaining binding |
| --- | --- | --- |
| FLT3 (Homo sapiens, UniProt P36888, D835Y) | cell-free assay | 5.9% |
| FRK (Homo sapiens, UniProt P42685) | cell-free assay | 100% |
| PIK3CA (Homo sapiens, UniProt P42336, M1043I) | cell-free assay | 100% |
| Ribosomal protein S6 kinase alpha-1, N-terminal kinase domain (RPS6KA1, Homo sapiens, UniProt Q15418) | cell-free assay | 100% |
| SYK (Homo sapiens, UniProt P43405) | cell-free assay | 66% |
| BMPR1A (Homo sapiens, UniProt P36894) | binding | 100% |
| Non-receptor tyrosine-protein kinase TYK2, JH1 (TYK2, Homo sapiens, UniProt P29597) | cell-free assay | 27% |
| NUAK1 (Homo sapiens, UniProt O60285) | cell-free assay | 31% |
| LTK (Homo sapiens, UniProt P29376) | cell-free assay | 89% |
| ROS1 (Homo sapiens, UniProt P08922) | cell-free assay | 58% |
| PRKCE (Homo sapiens, UniProt Q02156) | cell-free assay | 100% |
| PI4KB (Homo sapiens, UniProt Q9UBF8) | cell-free assay | 99% |
| COQ8B (Homo sapiens, UniProt Q96D53) | cell-free assay | 88% |
| STK36 (Homo sapiens, UniProt Q9NRP7) | cell-free assay | 89% |
| STK17A (Homo sapiens, UniProt Q9UEE5) | cell-free assay | 19% |

Study 2 — target: CCNA2, cyclin fold, Cln2 fusion (human); method: yeast growth competition, sequencing; matrix: yeast; setting: strong parent motif; baseline: not given; direction: higher = stronger binding
Starting sequence: SAMHD1 docking peptide (human); ASKSRVQLFKDDP; partner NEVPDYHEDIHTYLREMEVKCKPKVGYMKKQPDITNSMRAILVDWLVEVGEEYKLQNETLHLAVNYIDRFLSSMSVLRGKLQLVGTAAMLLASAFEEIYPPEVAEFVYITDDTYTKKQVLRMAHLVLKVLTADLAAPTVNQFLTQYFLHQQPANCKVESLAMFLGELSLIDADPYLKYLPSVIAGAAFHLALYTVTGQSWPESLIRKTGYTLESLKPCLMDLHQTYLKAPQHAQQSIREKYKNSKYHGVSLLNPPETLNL
| Variant | normalised enrichment score |
| --- | --- |
| F9W | 0.863 |
| S4N | 0.664 |
| L8K | -0.1 |
| D12G | 2.56 |
| S2D | 1.19 |
| R5C | 1.2 |
| Q7F | 1.2 |
| R5A | 0.43 |

Study 3 — host: human; matrix: microsomes or S9; concentration: 2 µM; time: 0.5 h
| Structure (SMILES) | remaining compound |
| --- | --- |
| CC(C)C1CC(n2cc(C(=O)O)nn2)c2cc(Cl)ccc2O1 (stereo not shown) | > 99.9% |
| COc1c(Cl)ccc(C2=NOC(c3cc(N)c(Cl)c(C(=O)O)n3)C2)c1F (stereo not shown) | > 99% |
| CC(C)CCn1c(N2CCNCC2)nc2c1c(O)nc(=O)n2C | 92.4% |
| CC(C)Cn1c(NCCc2ccccc2)nc2c1c(O)nc(=O)n2C | 48.3% |

Study 4 — cell line: mouse MPNST tumor cells; method: high-content immunofluorescence imaging; item: nuclear SOX9; concentration: 10 µM; time: 12 h; setting: mean of 2 replicates; baseline: DMSO control; direction: higher = more nuclear SOX9
| Compound | nuclear SOX9 intensity |
| --- | --- |
| N=c1nc(N2CCCCC2)cc(N)n1O | 93.6 % of DMSO and 90.9 % of DMSO |
| CC(=O)CC(c1ccc([N+](=O)[O-])cc1)c1c(O)c2ccccc2oc1=O (stereo not shown) | 101 % of DMSO |
| O=c1[nH]cc(F)c(=O)[nH]1 | 108 % of DMSO and 107 % of DMSO |
| Cc1cc(=O)oc2c(C=O)c(O)ccc12 | 81.4 % of DMSO |

For quick reference, copied from above (study 2):
| Variant | normalised enrichment score |
| --- | --- |
| S4N | 0.664 |
| L8K | -0.1 |
| D12G | 2.56 |
| S2D | 1.19 |
| R5C | 1.2 |
